Experimental data from different studies.
Target: Alpha-2A adrenergic receptor (ADRA2A, Homo sapiens, UniProt P08913)
Sequence of UniProt P08913 (whole entry, looked up): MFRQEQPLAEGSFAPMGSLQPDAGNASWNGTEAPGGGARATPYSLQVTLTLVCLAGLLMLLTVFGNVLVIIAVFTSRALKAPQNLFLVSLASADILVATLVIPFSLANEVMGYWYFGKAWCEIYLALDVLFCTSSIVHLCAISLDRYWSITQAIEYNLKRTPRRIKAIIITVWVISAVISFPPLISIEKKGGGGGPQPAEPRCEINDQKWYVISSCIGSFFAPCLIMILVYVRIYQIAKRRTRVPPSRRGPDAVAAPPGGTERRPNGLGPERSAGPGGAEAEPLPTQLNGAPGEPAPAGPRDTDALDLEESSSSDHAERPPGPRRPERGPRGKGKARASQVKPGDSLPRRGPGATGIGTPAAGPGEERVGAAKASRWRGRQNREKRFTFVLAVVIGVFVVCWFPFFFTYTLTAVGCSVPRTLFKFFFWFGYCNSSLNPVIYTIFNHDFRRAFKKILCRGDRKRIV

SMILES = COc1ccc(F)cc1S(=O)(=O)Nc1cnc2c(c1)C(=O)NCCO2; read-out = ligand displacement; technique = radioligand; concentration = 10 µM; endpoint = inhibition; value = 7%
SMILES = CCc1nnc(-c2c(OC)cc(-c3cnc4cc(-c5cnn(C)c5)ccn34)cc2OC)o1; mode = antagonist radioligand; technique = radioligand binding; concentration = 10 µM; setting = SafetyScreen44 alpha 2 A; endpoint = inhibition; value = -7%
SMILES = CCOC(=O)[C@](CC)(CCCSCCOCCOCCNC(=O)c1ccc(-c2c3ccc(=N)c(S(=O)(=O)O)c-3oc3c(S(=O)(=O)O)c(N)ccc23)c(C(=O)O)c1)NC(=O)c1ccc(C2CC2)c(Cc2ccc(F)cc2)n1; read-out = ligand displacement; technique = radioligand; concentration = 10 µM; endpoint = inhibition; value = 5%
SMILES = CCCO[C@H]1[C@H](O)[C@@H](N)[C@@H](O[C@H]2[C@H](O[C@@H]3O[C@H](CO)[C@@H](O[C@H]4O[C@@H](CN)[C@@H](O)[C@H](O)[C@H]4N)[C@H]3O)[C@@H](O)[C@H](N)C[C@@H]2N)O[C@@H]1CO; read-out = radioligand binding; concentration = 10 µM; setting = 1% DMSO; endpoint = specific binding; value = 7%
SMILES = O=C(c1cc(Cc2n[nH]c(=O)c3ccccc23)ccc1F)N1CC(CNC2CC2)C1; read-out = cell-free assay; concentration = 10 µM; endpoint = inhibition; value = 25%
SMILES = C/C(=N\OCCCN1CCCCC1)c1ccc(C(F)(F)F)cc1; mode = agonist; technique = IP-One; concentration = 10 µM; endpoint = activation; value = 2.45%
SMILES = CN[C@@H]1[C@H](O)[C@H](NC)[C@H]2O[C@]3(O)[C@H](O[C@@H]2[C@H]1O)O[C@H](C)C[C@H]3NC(=O)Cc1ccc(Cl)cn1; read-out = ligand displacement; technique = radioligand; concentration = 10 µM; endpoint = inhibition; value = -4%
SMILES = Cc1ccc2c(n1)c(-c1cccc(S(C)(=O)=O)c1)c(C)n2C/C(F)=C/CN; technique = off-target safety screen; concentration = 10 µM; endpoint = inhibition; value = 65%
SMILES = Cc1cc(-c2ccc3ccccc3c2)nnc1NCCN1CCN(C)CC1; mode = antagonist; concentration = concentration not given; endpoint = antagonist activity; value = negative
SMILES = Cc1cc(Nc2nc(C[C@@]3(C(=O)O)CCN(Cc4cccc(Cl)c4F)[C@H](C)C3)cc(C)c2F)[nH]n1; mode = inhibitor; concentration = 10 µM; endpoint = inhibition; value = 1.15%
SMILES = CS(C)(=O)=Nc1ccc(-c2ccc(-c3nc4cc(O[C@@H]5CO[C@H]6[C@@H]5OC[C@H]6O)[nH]c4cc3F)cc2)cc1; read-out = calcium signal; mode = antagonist; concentration = 10 µM; endpoint = inhibition; value = -3%
